{"data": "Experimental data of several laboratories", "USP49 ZnF-UBD domain": "Ubiquitin carboxyl-terminal hydrolase 49, ZnF-UBD domain (USP49, Homo sapiens, UniProt Q70CQ1)", "note": "Compare with care: the assays were run in different laboratories. Numbers after ± are the reported error.", "chain of UniProt Q70CQ1 (whole entry, looked up)": "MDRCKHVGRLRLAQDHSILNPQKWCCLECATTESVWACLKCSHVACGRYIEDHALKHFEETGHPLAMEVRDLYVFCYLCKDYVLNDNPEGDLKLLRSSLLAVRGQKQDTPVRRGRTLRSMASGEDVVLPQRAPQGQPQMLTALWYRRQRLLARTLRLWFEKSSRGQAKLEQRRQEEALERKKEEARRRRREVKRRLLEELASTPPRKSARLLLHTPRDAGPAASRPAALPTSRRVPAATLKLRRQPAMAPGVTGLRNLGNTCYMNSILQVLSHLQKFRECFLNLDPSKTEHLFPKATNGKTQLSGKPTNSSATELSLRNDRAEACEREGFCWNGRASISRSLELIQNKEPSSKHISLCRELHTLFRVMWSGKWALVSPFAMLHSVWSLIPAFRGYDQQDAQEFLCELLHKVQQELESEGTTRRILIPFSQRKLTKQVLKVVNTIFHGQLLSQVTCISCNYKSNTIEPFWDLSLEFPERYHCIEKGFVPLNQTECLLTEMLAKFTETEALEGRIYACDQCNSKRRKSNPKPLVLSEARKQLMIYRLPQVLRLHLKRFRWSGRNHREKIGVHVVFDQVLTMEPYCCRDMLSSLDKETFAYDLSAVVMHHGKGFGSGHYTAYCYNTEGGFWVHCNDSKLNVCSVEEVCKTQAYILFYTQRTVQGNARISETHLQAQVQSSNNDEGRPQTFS"}
{"SMILES": "O=C1CCc2ccc(OCCCCN3CCN(c4cccc(Cl)c4Cl)CC3)cc2N1", "assay": "refers to: Tremor", "test system": "patients, CYP2D6 normal metabolizers", "setting": "dose not given, long-acting oral or depot", "measurement": "adverse event incidence", "value": "4.5%"}
{"SMILES": "CCCCCN1C[C@H](O)[C@@H](O)[C@H](O)[C@@H]1CO", "assay": "LC-MS/MS", "test system": "Hexb-/- mice, brain", "setting": "300 mg/kg/day", "measurement": "brain concentration", "value": "271 ng/mL"}
{"SMILES": "CN1CCN(C(=O)c2ccccc2N(Cc2ccccc2)S(C)(=O)=O)CC1", "test system": "octanol/buffer", "setting": "pH 7.4", "measurement": "logD", "value": 1.37}
{"SMILES": "Nc1nc2c(nc([N+](=O)[O-])n2[C@@H]2O[C@H](CO)[C@@H](O)[C@H]2O)c(=O)[nH]1", "assay": "depurination, RP-HPLC", "test system": "citrate-phosphate buffer 0.5 mM", "setting": "45 min, pH 2, 37 °C", "measurement": "nucleoside remaining fraction", "value": 0.927}
{"SMILES": "CC(C)(C(=O)N1CCOc2c(C#N)cncc2C1)C(F)F", "test system": "human, both sexes", "setting": "oral, 30 mg single dose", "measurement": "subjects with cardiac disorder TEAE", "value": "0%"}
{"SMILES": "C[C@@H](c1ncncc1F)[C@](O)(Cn1cncn1)c1ccc(F)cc1F", "test system": "human", "setting": "oral, 400 mg, drug interaction trial", "measurement": "grade 2 TEAE", "value": "0%"}
{"SMILES": "c1ccc(-c2cccc(Nc3nccc(NC4CCCCC4)n3)c2)cc1", "test system": "MDCKII-WT cells", "setting": "10 µM, pH 7.4", "scale": "relative to: Papp B-A over A-B", "measurement": "efflux ratio", "value": 14.8}
{"SMILES": "CCN1/C(=C/C(C)=O)Sc2ccc(F)cc21", "test system": "cynomolgus monkey", "setting": "oral, 100 mg/kg, 2 h post-dose", "scale": "relative to: pre-dose", "measurement": "diastolic blood pressure change", "value": "96.1 ± 3.3%"}
{"SMILES": "C[C@@]1(c2cc(NC(=O)c3ccc(C#N)cn3)ccc2F)C=CSC(N)=N1", "test system": "elderly humans, both sexes, plasma", "setting": "oral, 10 mg single dose", "measurement": "dose-normalised Cmax", "value": "8.39 ng/mL"}
{"SMILES": "CCC[C@H](C)[C@H]1CN(C(=O)OCC)C[C@@H](c2ccc(C(F)(F)F)cc2)N1", "assay": "shake-flask, 1-octanol/buffer", "setting": "pH 7.4", "measurement": "logD", "value": "> 4.7"}
{"SMILES": "CN(CCC#N)C1CCN(C(=O)Cn2cc(NC(=O)c3cnn4cccnc34)c(-c3cc(Cl)ccc3OC(F)F)n2)CC1", "test system": "healthy human", "setting": "3 mg once daily, day 42", "scale": "relative to: baseline", "measurement": "LDL cholesterol change", "value": "-4.8 mg/dL"}
{"SMILES": "CCOc1c([C@H](C)n2nc(C)c3c(N)ncnc32)cc(Cl)c(F)c1[C@@H]1CNC(=O)C1", "assay": "ECG", "test system": "previously treated B-cell malignancy patients", "setting": "oral, 45 mg once daily, baseline below thresholds", "measurement": "observations with HR ≤100 bpm", "value": "100%"}
{"SMILES": "C=CC(=O)NC1CCN(c2ncc3ncnc(Nc4ccc(Oc5ccc6c(c5)ncn6C)c(C)c4)c3n2)CC1", "assay": "refers to: total radioactivity", "test system": "healthy male human, whole blood and plasma", "setting": "oral, 60 mg, 120 h, geometric mean", "measurement": "blood-to-plasma ratio", "value": 2.91}
{"SMILES": "CCOC(=O)N1C[C@@H](c2cccc(Br)c2)N[C@@H](c2ccc(F)c(C#N)c2)C1", "assay": "shake-flask, 1-octanol/buffer", "setting": "pH 7.4", "measurement": "logD", "value": "> 4.7"}
{"SMILES": "c1ccc(CN2CCCN3CCN(Cc4ccccc4)CCCN(CC2)Cc2cccc(n2)C3)cc1", "test system": "64Cu complex", "setting": "12 h, pH 7.4, 37 °C, added: DOTA excess", "measurement": "intact complex", "value": "95%"}
{"SMILES": "Cn1cnc2c(F)c(Nc3ccc(Br)cc3Cl)c(C(=O)NOCCO)cc21", "assay": "population PK model", "test system": "human, plasma", "setting": "oral, first-order absorption model, fed", "measurement": "absorption lag time", "value": "0.63 h"}
{"SMILES": "OC[C@H]1O[C@@H](c2ccc(F)c(Cc3cc4ccccc4s3)c2)[C@H](O)[C@@H](O)[C@@H]1O", "test system": "Japanese patients, type 1 diabetes", "setting": "oral, 25 mg/day, onset day 3", "scale": "relative to: patients", "measurement": "hypoglycaemia-related adverse event", "value": "5%"}
{"SMILES": "CC[C@H](C)[C@H](NC(=O)[C@H](Cc1ccccc1)NC(=O)[C@H](CCC(=O)O)NC(=O)[C@H](CCCCNC(=O)COCCOCCNC(=O)COCCOCCNC(=O)CC[C@H](NC(=O)CCCCCCCCCCCCCCCCC(=O)O)C(=O)O)NC(=O)[C@H](C)NC(=O)[C@H](C)NC(=O)[C@H](CCC(N)=O)NC(=O)CNC(=O)[C@H](CCC(=O)O)NC(=O)[C@H](CC(C)C)NC(=O)[C@H](Cc1ccc(O)cc1)NC(=O)[C@H](CO)NC(=O)[C@H](CO)NC(=O)[C@@H](NC(=O)[C@H](CC(=O)O)NC(=O)[C@H](CO)NC(=O)[C@@H](NC(=O)[C@H](Cc1ccccc1)NC(=O)[C@@H](NC(=O)CNC(=O)[C@H](CCC(=O)O)NC(=O)C(C)(C)NC(=O)[C@@H](N)Cc1cnc[nH]1)[C@@H](C)O)[C@@H](C)O)C(C)C)C(=O)N[C@@H](C)C(=O)N[C@@H](Cc1c[nH]c2ccccc12)C(=O)N[C@@H](CC(C)C)C(=O)N[C@H](C(=O)N[C@@H](CCCNC(=N)N)C(=O)NCC(=O)N[C@@H](CCCNC(=N)N)C(=O)NCC(=O)O)C(C)C", "test system": "Japanese subjects", "setting": "0.5 mg, moderate adverse events", "measurement": "subjects with adverse events", "value": "12.5%"}
{"SMILES": "NC1(C(=O)N[C@@H](CCO)c2ccc(Cl)cc2)CCN(c2nc[nH]c3nccc2-3)CC1", "test system": "human patients aged >=sample A years", "setting": "400 mg", "measurement": "likelihood of grade >=3 AE", "value": "56.7%"}
{"SMILES": "CCCCOC(=O)N1CCN(C(=O)[C@H](CP(=O)(O)O)NC(=O)c2cc(N3CC[C@H](OC)C3)nc(-c3ccccc3)n2)CC1", "test system": "human", "setting": "subcutaneous, 16 mg, 24 h post-dose", "scale": "relative to: baseline", "measurement": "change in heart rate", "value": "1.5 ± 5.6 beats/min"}
{"SMILES": "CC(C)n1c(Nc2cccnc2)nc2cnc(Nc3ccc(N4CCN(C)CC4)cc3)nc21", "assay": "refers to: gastrointestinal disorders (SOC)", "test system": "healthy human, male", "setting": "oral, dose not given, CTCAE grade 1-3", "measurement": "subjects with TEAE", "value": "19%"}
{"SMILES": "O=C(O)CCc1nc2ccccc2c2nc(Cc3ccccc3)nn12", "tested on": "USP49 ZnF-UBD domain", "measurement": "Kd", "value": "> 1000 µM"}
{"SMILES": "CCO", "test system": "human", "setting": "treatment-emergent adverse event", "measurement": "flushing", "value": "61.1%"}
{"SMILES": "O=[N+]([O-])c1ccc2c(c1)S(=O)(=O)C=C2", "test system": "PBS", "setting": "50 µM, 24 h, pH 7.4, 37 °C, added: equimolar thiol", "measurement": "conversion to thiol conjugate", "value": "> 95%"}
{"SMILES": "O=Cc1cc2c(cc1F)C(=O)N(C1CCC(=O)NC1=O)C2 (stereo not drawn)", "test system": "CD-1 mice", "setting": "intravenous, 1 mg/kg, 1 h", "measurement": "plasma concentration", "value": "not detected"}
{"SMILES": "Cc1nc(Nc2ncnc3ccc(-c4cccc(N5CCOCC5)c4)cc23)oc1C", "test system": "human liver microsomes", "measurement": "CLint", "value": "24 µL/min/mg"}
{"SMILES": "O=C(COc1ccc(Cl)cc1)NC12CC(c3nnc([C@H]4C[C@@H](OC(F)(F)F)C4)o3)(C1)C2", "test system": "human both sexes", "setting": "oral, 200 mg single dose", "measurement": "participants with TEAE", "value": "66.7%"}
{"SMILES": "Cl.[2H]C([2H])([2H])CC(=O)c1cnc(NC(=O)C2CC2)cc1Nc1cccc(-c2ncn(C([2H])([2H])[2H])n2)c1OC", "assay": "geometric mean", "test system": "human", "setting": "oral, 40 mg twice daily, day 1, fed, liquid, multiple dose", "measurement": "elimination rate constant", "value": "3.89e-05 s⁻¹"}
{"SMILES": "O=S(=O)(NCc1ccccn1)c1ccc(Cl)c(Cl)c1Cl", "test system": "octanol/buffer", "setting": "pH 7.4", "measurement": "logD", "value": 3.05}
{"SMILES": "Cc1cc(-c2nccc3c2ccn3CC(=O)Nc2ccc(-c3cnccn3)cn2)ccn1", "test system": "human", "setting": "SAD part, single 7 mg dose", "measurement": "subjects with grade 1 TEAE", "value": "33.3%"}
{"SMILES": "O=C(O)CCC(=O)N1CCc2ccccc21", "tested on": "USP49 ZnF-UBD domain", "measurement": "Kd", "value": "> 1000 µM"}
{"SMILES": "O=C(O)CN1CCCN2CCN(CC(=O)O)CCCN(CC1)Cc1cccc(n1)C2", "test system": "64Cu complex in rat plasma", "setting": "0.5 h, 37 °C", "measurement": "intact complex", "value": "98%"}
{"SMILES": "Cc1cc(Nc2cc3ncccc3c(N[C@@H]3C[C@H]4CC[C@@H](C3)N4CCC#N)n2)n[nH]1", "test system": "healthy human subjects", "setting": "oral, 10 mg, 14 days, multiple ascending dose", "measurement": "skin subcutaneous disorders incidence", "value": "50%"}
{"SMILES": "CN1CCCC1CCNS(=O)(=O)c1ccc2c(c1)CN(CC1CCCCC1)CC2 (stereo not drawn)", "test system": "wild-type mouse, pons/cerebellum", "setting": "oral in diet, 0.002% in diet, 6 months", "measurement": "Cmin", "value": "11.1 ng/g"}
{"SMILES": "CC#CC(=O)N1CCC[C@H]1c1nc(-c2ccc(C(=O)Nc3ccccn3)cc2)c2c(N)nccn12", "test system": "PBS", "setting": "100 µM, 23 h, pH 8, 37 °C, added: cysteine 10 mM", "measurement": "cysteine adduct formation", "value": "97%"}
{"SMILES": "O[C@H]1[C@H](O)[C@@H](O)[C@H](O)[C@@H](O)[C@H]1O", "assay": "binding, equilibrium dialysis LC-MS", "setting": "5 µM, thermostabilized A2AR-BRIL construct", "scale": "relative to: no-protein control, direction not given", "measurement": "z-scored log2 fold change", "value": -1.69}
{"SMILES": "CC1(C)OC[C@H](c2ccc(C(F)(F)F)cc2)N[C@@H]1c1ccc(Cl)c(Cl)c1", "assay": "shake-flask, 1-octanol/buffer", "setting": "pH 7.4", "measurement": "logD", "value": "> 4.7"}
{"SMILES": "Cc1ccc([C@@H]2O[C@H](CO)[C@@H](O)[C@H](O)[C@H]2O)cc1Cc1ccc(-c2ccc(F)cc2)s1", "test system": "Japanese type 2 diabetes patients", "setting": "200 mg, day 3, 24 h urine collection", "scale": "relative to: baseline", "measurement": "urinary magnesium excretion change", "value": "-13.7 mg"}
{"SMILES": "NC(=O)N1c2ccccc2C=Cc2ccccc21", "assay": "refers to: GGT increased", "test system": "human male", "setting": "oral, dose not given, CTCAE on-treatment AEs", "measurement": "adverse events incidence", "value": "7%"}
{"SMILES": "CCOC(=O)N1C[C@@H](C2CCCCC2)N[C@@H](c2ccc(C(F)(F)F)cc2)C1", "assay": "shake-flask, 1-octanol/buffer", "setting": "pH 7.4", "measurement": "logD", "value": "> 4.7"}
{"SMILES": "OC[C@H]1O[C@@H](n2cnc3c(O)nc(O)nc32)[C@H](O)[C@@H]1O", "assay": "binding, equilibrium dialysis LC-MS", "setting": "5 µM, thermostabilized A2AR-BRIL construct", "scale": "relative to: no-protein control, direction not given", "measurement": "z-scored log2 fold change", "value": -0.0764}
{"SMILES": "COc1ncc(-c2nc3c(n2C(C)C)[C@H](c2ccc(Cl)cc2)N(c2cc(Cl)cn(C)c2=O)C3=O)c(OC)n1", "test system": "human patients, plasma", "setting": "oral, 350 mg, high-dose arm, cycle 1 day 1", "measurement": "median Tmax", "value": "3 h"}
